# Experimental data gathered from unrelated publications.
# Every numbered part comes from another study and shows a few of its results, in no order.
# Chain of UniProt Q5XXA6 (whole entry, unmodified, looked up): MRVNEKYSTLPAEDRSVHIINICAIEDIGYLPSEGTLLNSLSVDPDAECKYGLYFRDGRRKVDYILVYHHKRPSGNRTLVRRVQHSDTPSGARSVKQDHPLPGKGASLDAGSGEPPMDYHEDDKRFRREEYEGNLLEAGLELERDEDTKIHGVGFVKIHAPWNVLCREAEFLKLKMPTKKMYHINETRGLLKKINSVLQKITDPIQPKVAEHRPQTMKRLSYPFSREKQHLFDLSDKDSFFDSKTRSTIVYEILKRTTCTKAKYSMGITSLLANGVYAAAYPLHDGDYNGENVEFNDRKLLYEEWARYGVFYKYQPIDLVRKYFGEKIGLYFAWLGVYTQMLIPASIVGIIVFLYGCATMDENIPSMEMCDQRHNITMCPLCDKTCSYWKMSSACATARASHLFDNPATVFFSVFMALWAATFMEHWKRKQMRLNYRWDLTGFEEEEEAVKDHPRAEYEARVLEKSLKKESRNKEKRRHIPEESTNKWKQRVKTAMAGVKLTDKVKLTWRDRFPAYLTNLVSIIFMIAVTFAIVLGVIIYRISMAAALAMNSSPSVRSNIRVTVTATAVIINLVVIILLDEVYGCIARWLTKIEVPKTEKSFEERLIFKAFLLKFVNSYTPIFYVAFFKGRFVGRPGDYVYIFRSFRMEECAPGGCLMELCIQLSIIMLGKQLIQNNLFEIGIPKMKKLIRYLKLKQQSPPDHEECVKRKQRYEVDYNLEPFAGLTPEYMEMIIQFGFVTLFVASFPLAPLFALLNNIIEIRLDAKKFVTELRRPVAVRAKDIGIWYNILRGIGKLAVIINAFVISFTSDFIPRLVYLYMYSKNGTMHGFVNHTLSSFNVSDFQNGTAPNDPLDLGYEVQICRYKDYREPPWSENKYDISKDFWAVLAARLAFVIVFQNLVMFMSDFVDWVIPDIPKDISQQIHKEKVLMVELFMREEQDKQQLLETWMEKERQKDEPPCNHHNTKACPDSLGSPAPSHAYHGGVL
# Chain of UniProt P49137 (whole entry, looked up): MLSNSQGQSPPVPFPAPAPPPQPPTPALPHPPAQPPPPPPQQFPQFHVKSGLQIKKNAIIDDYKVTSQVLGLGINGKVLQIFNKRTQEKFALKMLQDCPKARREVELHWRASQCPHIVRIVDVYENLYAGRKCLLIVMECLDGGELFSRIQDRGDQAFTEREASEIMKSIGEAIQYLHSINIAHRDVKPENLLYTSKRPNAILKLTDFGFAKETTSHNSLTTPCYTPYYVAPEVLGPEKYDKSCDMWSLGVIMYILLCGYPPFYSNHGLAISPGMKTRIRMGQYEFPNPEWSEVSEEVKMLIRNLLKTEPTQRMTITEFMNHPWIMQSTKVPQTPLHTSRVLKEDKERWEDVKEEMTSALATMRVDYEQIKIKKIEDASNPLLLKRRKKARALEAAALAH
# Chain of UniProt Q16566 (whole entry, looked up): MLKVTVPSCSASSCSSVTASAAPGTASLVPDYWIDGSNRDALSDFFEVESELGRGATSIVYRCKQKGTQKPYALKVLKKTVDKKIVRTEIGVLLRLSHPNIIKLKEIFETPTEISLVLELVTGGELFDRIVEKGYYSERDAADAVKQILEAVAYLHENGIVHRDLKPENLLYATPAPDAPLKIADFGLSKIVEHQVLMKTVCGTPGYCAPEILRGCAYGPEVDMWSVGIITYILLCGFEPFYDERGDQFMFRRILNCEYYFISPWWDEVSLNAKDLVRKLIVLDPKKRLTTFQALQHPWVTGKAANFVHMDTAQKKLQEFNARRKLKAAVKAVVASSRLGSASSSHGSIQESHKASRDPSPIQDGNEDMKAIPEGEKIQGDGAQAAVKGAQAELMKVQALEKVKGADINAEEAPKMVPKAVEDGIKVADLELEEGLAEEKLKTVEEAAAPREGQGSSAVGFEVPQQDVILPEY
# Chain of UniProt P29376 (whole entry, looked up): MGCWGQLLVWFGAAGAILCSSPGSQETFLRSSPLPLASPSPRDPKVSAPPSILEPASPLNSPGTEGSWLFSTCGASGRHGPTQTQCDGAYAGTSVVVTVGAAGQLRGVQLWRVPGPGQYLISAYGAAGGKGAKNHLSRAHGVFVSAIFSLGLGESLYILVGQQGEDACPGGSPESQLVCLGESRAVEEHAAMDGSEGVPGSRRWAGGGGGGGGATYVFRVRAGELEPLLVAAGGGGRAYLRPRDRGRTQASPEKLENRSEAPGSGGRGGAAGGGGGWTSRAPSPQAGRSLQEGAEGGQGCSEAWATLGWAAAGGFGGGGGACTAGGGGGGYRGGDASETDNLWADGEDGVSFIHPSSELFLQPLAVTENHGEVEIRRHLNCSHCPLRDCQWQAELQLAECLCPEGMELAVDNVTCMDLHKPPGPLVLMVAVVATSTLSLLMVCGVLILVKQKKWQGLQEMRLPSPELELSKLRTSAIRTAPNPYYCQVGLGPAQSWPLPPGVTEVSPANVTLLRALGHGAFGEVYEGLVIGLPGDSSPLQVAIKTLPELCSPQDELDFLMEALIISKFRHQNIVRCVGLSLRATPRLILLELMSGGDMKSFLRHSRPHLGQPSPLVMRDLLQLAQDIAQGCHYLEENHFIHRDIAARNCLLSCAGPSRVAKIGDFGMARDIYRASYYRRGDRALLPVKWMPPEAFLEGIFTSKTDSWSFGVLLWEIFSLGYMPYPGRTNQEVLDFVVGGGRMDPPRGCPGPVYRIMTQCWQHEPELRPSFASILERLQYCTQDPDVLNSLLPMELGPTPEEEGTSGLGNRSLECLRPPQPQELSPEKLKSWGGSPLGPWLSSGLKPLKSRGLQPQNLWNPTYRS
# Chain of UniProt P07949 (whole entry, unmodified, looked up): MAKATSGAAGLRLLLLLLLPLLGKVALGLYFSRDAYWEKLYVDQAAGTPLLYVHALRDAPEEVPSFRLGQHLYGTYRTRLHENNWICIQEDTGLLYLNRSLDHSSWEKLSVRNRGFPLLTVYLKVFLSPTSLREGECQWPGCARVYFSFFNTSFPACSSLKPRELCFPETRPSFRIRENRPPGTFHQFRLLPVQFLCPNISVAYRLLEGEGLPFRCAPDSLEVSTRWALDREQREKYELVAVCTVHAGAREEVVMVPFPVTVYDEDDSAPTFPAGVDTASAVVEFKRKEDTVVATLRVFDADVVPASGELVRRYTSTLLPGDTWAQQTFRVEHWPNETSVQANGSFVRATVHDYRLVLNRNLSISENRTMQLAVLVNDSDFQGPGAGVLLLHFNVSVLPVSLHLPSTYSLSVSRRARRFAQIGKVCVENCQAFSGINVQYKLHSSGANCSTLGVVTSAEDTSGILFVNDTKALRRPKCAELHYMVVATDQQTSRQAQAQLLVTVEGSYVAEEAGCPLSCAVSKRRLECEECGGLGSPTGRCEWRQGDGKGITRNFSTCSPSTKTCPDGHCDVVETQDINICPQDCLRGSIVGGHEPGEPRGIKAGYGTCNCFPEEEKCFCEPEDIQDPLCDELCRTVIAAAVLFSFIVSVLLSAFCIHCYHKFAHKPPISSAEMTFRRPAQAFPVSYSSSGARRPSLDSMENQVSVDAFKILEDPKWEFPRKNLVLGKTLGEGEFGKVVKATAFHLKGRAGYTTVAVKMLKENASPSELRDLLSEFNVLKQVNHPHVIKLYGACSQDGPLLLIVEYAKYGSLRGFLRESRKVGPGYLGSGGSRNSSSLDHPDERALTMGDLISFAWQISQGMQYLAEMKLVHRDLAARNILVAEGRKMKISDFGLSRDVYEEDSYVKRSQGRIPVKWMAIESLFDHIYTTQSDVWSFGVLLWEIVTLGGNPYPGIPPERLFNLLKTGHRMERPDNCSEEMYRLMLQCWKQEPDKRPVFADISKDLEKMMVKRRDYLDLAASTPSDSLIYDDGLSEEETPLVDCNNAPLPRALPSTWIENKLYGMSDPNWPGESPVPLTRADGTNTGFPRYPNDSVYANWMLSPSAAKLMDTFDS

# Series 1
# Target: Tyrosine-protein kinase JAK2 (JAK2, Homo sapiens, UniProt O60674)
# Chain of UniProt O60674 (whole entry, looked up): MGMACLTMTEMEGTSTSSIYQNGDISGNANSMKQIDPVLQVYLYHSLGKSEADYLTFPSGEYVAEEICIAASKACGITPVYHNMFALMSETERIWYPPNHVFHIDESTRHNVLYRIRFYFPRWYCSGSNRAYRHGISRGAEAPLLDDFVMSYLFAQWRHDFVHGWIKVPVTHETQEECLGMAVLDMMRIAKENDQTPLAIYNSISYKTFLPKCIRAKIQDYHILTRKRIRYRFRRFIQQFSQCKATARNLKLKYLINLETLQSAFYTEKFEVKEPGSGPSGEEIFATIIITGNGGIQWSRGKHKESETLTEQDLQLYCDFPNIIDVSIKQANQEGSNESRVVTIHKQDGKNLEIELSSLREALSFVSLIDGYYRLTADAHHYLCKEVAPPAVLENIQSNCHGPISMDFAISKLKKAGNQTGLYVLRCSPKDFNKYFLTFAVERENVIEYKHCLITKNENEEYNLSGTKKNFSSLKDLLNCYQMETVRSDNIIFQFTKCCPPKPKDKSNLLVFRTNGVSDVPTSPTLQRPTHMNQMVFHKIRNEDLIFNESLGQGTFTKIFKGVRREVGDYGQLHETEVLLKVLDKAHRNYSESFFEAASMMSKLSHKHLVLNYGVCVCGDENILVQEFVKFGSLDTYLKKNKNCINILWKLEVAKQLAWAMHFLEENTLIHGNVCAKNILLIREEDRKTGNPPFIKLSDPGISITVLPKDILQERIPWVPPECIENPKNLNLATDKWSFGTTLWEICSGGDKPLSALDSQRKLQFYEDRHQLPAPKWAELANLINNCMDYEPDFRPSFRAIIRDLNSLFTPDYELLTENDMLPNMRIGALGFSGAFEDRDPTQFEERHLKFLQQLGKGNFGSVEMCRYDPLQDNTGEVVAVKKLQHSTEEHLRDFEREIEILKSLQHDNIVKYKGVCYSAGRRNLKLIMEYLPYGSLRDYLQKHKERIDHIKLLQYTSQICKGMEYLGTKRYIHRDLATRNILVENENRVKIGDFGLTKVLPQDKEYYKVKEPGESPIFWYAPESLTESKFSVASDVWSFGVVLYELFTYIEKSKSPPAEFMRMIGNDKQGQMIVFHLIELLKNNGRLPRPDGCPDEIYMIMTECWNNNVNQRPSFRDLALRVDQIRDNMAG
# Read-out: enzyme activity
# Mode: inhibitor
# Concentration: 0.5 µM
# Reference: control
Structure (SMILES),remaining activity [%]
O=C1NC(=O)C(c2c[nH]c3ccccc23)=C1c1c[nH]c2ccccc12,100
COc1cc(Nc2c(C#N)cnc3cc(OCCCN4CCN(C)CC4)c(OC)cc23)c(Cl)cc1Cl,97.4
Cc1cncc2cccc(S(=O)(=O)N3CCCN(C(=O)CN)C[C@@H]3C)c12,93.9
CC[n+]1c(/C=C/N(C)c2ccccc2)n(-c2ccccc2)c2ccc(-c3nc4ccccc4s3)cc21,98.8
Cc1cc(Nc2nc(-c3ccccc3)nc3ccccc23)n[nH]1,52.6
CC(C)(C)n1nc(Cc2cccc3ccccc23)c2c(N)ncnc21,94.3
N#CC(=C(N)Sc1ccc(N)cc1)c1ccccc1C(F)(F)F,98.7
Oc1ccc(Nc2nc(-c3ccc(Cl)cc3)cs2)cc1,101

# Series 2
# SMILES: CC(=O)N1CCC(c2ccc(C(=O)NC3=NCCN3)cc2C(F)(F)F)CC1
# Method: competition with immobilised ligand
# Concentration: 1 µM
target,read-out,remaining binding [%]
"Vascular endothelial growth factor receptor 1 (FLT1, Homo sapiens, UniProt P17948)",cell-free assay,100
"Proto-oncogene tyrosine-protein kinase receptor Ret (RET, Homo sapiens, UniProt P07949, M918T)",cell-free assay,90
"Calcium/calmodulin-dependent protein kinase type IV (CAMK4, Homo sapiens, UniProt Q16566)",cell-free assay,92
"Epidermal growth factor receptor (EGFR, Homo sapiens, UniProt P00533, A750P/del747-749)",cell-free assay,89
"Leukocyte tyrosine kinase receptor (LTK, Homo sapiens, UniProt P29376)",cell-free assay,100
"Cyclin-dependent kinase 15 (CDK15, Homo sapiens, UniProt Q96Q40)",cell-free assay,100
"STE20/SPS1-related proline-alanine-rich protein kinase (STK39, Homo sapiens, UniProt Q9UEW8)",cell-free assay,100
"Dual serine/threonine and tyrosine protein kinase (DSTYK, Homo sapiens, UniProt Q6XUX3)",cell-free assay,74
"MAP kinase-activated protein kinase 2 (MAPKAPK2, Homo sapiens, UniProt P49137)",cell-free assay,100
"Epidermal growth factor receptor (EGFR, Homo sapiens, UniProt P00533, L858R/T790M)",cell-free assay,100
"Interleukin-1 receptor-associated kinase 3 (IRAK3, Homo sapiens, UniProt Q9Y616)",cell-free assay,100
"Myosin-IIIa (MYO3A, Homo sapiens, UniProt Q8NEV4)",binding,100
"MAP kinase-activated protein kinase 5 (MAPKAPK5, Homo sapiens, UniProt Q8IW41)",cell-free assay,88
"Mast/stem cell growth factor receptor Kit (KIT, Homo sapiens, UniProt P10721, D816H)",cell-free assay,97
"Receptor-type tyrosine-protein kinase FLT3 (FLT3, Homo sapiens, UniProt P36888)",cell-free assay,100
"Wee1-like protein kinase 2 (WEE2, Homo sapiens, UniProt P0C1S8)",cell-free assay,100
"Serine/threonine-protein kinase Nek6 (NEK6, Homo sapiens, UniProt Q9HC98)",cell-free assay,100
"Receptor-type tyrosine-protein kinase FLT3 (FLT3, Homo sapiens, UniProt P36888, D835Y)",cell-free assay,98
"Tyrosine-protein kinase Lyn (LYN, Homo sapiens, UniProt P07948)",cell-free assay,94
"Receptor-type tyrosine-protein kinase FLT3 (FLT3, Homo sapiens, UniProt P36888, K663Q)",cell-free assay,100
"cAMP-dependent protein kinase catalytic subunit PRKX (PRKX, Homo sapiens, UniProt P51817)",cell-free assay,100
"Discoidin domain-containing receptor 2 (DDR2, Homo sapiens, UniProt Q16832)",cell-free assay,96
"Calcium/calmodulin-dependent protein kinase kinase 2 (CAMKK2, Homo sapiens, UniProt Q96RR4)",cell-free assay,100
"Cyclin-dependent kinase 2 (CDK2, Homo sapiens, UniProt P24941)",cell-free assay,100
"Receptor-type tyrosine-protein kinase FLT3 (FLT3, Homo sapiens, UniProt P36888, ITD)",cell-free assay,100

# Series 3
# Species: mouse
# Sample: microsomes or S9
# Concentration: 2 µM
# Time: 0.5 h
Compound,remaining compound [%]
CCn1c(=O)c2sccc2n2c(CCCC(=O)NCCc3ccc(S(N)(=O)=O)cc3)nnc12,94.9
CCc1c(C(=O)NCC(OC)C(C)(C)C)cnc2c1c(=O)n(C)c(=O)n2C (centres unmarked),8.78
COc1cccc(CCN[C@H]2CS(=O)(=O)C[C@@H]2S(=O)(=O)c2ccc(Cl)cc2)c1,0.0946
Nc1ncc(Br)cc1S(=O)(=O)N1CCC(Oc2ccncc2)C1 (centres unmarked),19.4
CC1=CCC(c2nnco2)C(c2ccc(F)cc2)C1 (centres unmarked),22
CCOC(=O)N1CCN(CC(O)COc2ccc(C(C)C)c(C)c2)CC1 (centres unmarked),5.96
CCCc1nc(-c2ccc3ccccc3c2)cc2ccsc12,0.263

# Series 4
# SMILES: C=CCc1ccc(O)c(-c2cc(CC=C)ccc2O)c1
# Read-out: chloride current
# Method: whole-cell voltage clamp
target,mode,concentration,setting,together with,IC50 [µM]
"Anoctamin-1 (ANO1, Homo sapiens, UniProt Q5XXA6, del476-501/K629D)",inhibitor,,mutant K603D,,240
"Anoctamin-1 (ANO1, Homo sapiens, UniProt Q5XXA6, del476-501)",,,membrane voltage -20 mV,300 nM Ca2+,18.9
"Anoctamin-1 (ANO1, Homo sapiens, UniProt Q5XXA6, del476-501/M544V)",inhibitor,100 mV holding voltage,,,171
"Anoctamin-1 (ANO1, Homo sapiens, UniProt Q5XXA6, del476-501/M544T)",inhibitor,40 mV holding voltage,,,23.8
"Anoctamin-1 (ANO1, Homo sapiens, UniProt Q5XXA6, del476-501/F623A)",,,membrane voltage 60 mV,,23.2
"Anoctamin-1 (ANO1, Homo sapiens, UniProt Q5XXA6, del476-501/F803A)",,,membrane voltage -80 mV,,65.4

# Series 5
# Cell line: A-375
# Concentration: 100 µM
# Time: 36 h
SMILES,viability
C[C@@H]1O[C@@]2(CS1)CN1CCC2CC1,108%
Nc1ccc(S(=O)(=O)Nc2ccc(Cl)nn2)cc1,87.9%
CCCCCCCCOc1ccccc1C(=O)Nc1ccc(C(=O)OCC[N+](C)(CC)CC)cc1,0.0769%
CC(=O)N[C@@H](CCC(N)=O)C(=O)O,110%
CC(=O)OCC(=O)[C@@]12OC3(CCCC3)O[C@@H]1C[C@H]1[C@@H]3CCC4=CC(=O)C=C[C@]4(C)[C@@]3(F)[C@@H](O)C[C@@]12C,28.6%
CNCC(O)c1ccc(OC(=O)C(C)(C)C)c(OC(=O)C(C)(C)C)c1 (centres unmarked),64.6%
CN(C)C(=O)COC(=O)Cc1ccc(OC(=O)c2ccc(NC(=N)N)cc2)cc1,104%

# For quick reference, copied from above (series 3):
Compound,remaining compound [%]
CCCc1nc(-c2ccc3ccccc3c2)cc2ccsc12,0.263
CC1=CCC(c2nnco2)C(c2ccc(F)cc2)C1 (centres unmarked),22
CCn1c(=O)c2sccc2n2c(CCCC(=O)NCCc3ccc(S(N)(=O)=O)cc3)nnc12,94.9
Nc1ncc(Br)cc1S(=O)(=O)N1CCC(Oc2ccncc2)C1 (centres unmarked),19.4
CCc1c(C(=O)NCC(OC)C(C)(C)C)cnc2c1c(=O)n(C)c(=O)n2C (centres unmarked),8.78
COc1cccc(CCN[C@H]2CS(=O)(=O)C[C@@H]2S(=O)(=O)c2ccc(Cl)cc2)c1,0.0946
CCOC(=O)N1CCN(CC(O)COc2ccc(C(C)C)c(C)c2)CC1 (centres unmarked),5.96
